Results from different studies.
Several values in a cell are separate wells, animals, samples, runs or records. Numbers after ± are the reported error.
DPP9: Dipeptidyl peptidase 9 (DPP9, Homo sapiens, UniProt Q86TI2)
Sequence of UniProt Q86TI2 (whole entry, looked up): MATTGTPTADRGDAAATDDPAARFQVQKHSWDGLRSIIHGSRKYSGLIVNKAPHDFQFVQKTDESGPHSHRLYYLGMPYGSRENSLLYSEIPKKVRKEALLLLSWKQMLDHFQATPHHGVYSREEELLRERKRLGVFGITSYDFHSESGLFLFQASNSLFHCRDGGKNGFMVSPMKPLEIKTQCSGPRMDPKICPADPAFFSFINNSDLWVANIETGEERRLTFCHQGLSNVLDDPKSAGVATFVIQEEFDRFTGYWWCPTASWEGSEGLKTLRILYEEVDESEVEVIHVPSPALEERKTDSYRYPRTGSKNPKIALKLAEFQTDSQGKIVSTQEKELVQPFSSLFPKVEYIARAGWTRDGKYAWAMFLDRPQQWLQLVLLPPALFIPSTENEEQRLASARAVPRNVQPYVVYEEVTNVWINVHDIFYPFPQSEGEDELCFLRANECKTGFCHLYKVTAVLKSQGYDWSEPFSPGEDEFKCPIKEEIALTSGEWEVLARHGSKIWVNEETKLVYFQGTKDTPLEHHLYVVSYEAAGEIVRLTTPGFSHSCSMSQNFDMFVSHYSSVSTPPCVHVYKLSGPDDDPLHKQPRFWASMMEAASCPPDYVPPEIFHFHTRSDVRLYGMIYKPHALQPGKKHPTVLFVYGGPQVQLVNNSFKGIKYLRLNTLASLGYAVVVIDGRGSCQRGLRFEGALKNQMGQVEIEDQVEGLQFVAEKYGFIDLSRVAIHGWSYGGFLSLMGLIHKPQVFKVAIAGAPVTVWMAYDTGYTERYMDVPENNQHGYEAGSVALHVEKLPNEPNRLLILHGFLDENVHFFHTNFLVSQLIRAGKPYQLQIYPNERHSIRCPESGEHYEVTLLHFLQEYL
CARM1: Histone-arginine methyltransferase CARM1 (CARM1, Homo sapiens, UniProt Q86X55)
Sequence of UniProt Q86X55 (whole entry, looked up): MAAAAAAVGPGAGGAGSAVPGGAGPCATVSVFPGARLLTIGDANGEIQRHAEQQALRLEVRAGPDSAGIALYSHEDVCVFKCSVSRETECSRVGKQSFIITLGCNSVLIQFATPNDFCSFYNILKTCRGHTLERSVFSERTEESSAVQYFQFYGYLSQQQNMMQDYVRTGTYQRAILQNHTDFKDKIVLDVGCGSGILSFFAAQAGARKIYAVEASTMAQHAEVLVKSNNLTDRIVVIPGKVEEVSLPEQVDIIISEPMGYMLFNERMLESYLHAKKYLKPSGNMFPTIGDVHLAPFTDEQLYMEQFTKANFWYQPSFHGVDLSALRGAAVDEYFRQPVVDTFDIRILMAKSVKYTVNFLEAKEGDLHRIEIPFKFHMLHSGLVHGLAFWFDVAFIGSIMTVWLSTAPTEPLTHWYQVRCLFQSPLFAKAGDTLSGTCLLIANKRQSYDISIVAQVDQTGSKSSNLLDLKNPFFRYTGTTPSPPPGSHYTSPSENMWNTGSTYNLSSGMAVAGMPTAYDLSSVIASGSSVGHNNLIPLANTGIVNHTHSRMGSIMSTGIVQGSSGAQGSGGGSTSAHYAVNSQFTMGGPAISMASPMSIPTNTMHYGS
CELA1: Chymotrypsin-like elastase family member 1 (CELA1, Sus scrofa, UniProt P00772)
Sequence of UniProt P00772 (whole entry, looked up): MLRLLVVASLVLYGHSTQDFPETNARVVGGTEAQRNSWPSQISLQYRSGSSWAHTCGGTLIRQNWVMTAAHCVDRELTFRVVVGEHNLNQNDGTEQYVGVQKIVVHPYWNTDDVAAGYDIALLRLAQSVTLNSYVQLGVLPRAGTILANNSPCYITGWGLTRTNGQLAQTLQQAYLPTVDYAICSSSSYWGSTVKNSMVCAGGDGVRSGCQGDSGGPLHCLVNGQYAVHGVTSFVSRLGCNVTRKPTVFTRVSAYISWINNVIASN
HTR1E: 5-hydroxytryptamine receptor 1E (HTR1E, Homo sapiens, UniProt P28566)
Sequence of UniProt P28566 (whole entry, looked up): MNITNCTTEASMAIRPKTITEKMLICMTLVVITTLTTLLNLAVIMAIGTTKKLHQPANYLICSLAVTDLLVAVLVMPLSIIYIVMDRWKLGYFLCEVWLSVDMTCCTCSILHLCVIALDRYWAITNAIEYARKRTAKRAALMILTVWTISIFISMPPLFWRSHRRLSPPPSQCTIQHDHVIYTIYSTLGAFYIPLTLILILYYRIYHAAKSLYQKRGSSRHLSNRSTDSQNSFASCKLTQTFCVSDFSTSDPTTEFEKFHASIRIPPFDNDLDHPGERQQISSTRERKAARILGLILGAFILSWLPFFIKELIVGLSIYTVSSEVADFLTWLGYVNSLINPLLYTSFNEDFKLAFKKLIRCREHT
Sequence of UniProt Q02248 (whole entry, looked up): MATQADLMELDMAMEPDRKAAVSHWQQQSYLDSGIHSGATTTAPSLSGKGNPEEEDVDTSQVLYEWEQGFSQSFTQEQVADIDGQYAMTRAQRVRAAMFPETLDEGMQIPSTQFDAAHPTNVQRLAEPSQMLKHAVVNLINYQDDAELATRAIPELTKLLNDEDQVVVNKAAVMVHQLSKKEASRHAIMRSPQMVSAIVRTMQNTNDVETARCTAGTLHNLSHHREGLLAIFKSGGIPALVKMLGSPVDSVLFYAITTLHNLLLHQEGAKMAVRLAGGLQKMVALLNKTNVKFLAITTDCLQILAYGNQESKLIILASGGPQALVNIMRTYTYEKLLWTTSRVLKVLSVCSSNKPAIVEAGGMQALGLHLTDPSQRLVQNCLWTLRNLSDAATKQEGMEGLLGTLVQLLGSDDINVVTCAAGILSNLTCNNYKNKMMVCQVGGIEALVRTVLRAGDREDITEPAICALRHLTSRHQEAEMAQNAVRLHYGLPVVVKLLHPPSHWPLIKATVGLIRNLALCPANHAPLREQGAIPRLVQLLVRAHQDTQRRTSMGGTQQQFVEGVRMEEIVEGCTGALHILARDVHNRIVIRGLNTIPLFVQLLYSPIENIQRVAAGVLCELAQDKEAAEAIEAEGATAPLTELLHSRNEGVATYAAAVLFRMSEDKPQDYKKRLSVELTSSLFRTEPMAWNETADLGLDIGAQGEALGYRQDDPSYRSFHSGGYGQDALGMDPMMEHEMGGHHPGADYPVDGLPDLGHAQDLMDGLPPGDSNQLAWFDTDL
Sequence of UniProt P16519 (whole entry, looked up): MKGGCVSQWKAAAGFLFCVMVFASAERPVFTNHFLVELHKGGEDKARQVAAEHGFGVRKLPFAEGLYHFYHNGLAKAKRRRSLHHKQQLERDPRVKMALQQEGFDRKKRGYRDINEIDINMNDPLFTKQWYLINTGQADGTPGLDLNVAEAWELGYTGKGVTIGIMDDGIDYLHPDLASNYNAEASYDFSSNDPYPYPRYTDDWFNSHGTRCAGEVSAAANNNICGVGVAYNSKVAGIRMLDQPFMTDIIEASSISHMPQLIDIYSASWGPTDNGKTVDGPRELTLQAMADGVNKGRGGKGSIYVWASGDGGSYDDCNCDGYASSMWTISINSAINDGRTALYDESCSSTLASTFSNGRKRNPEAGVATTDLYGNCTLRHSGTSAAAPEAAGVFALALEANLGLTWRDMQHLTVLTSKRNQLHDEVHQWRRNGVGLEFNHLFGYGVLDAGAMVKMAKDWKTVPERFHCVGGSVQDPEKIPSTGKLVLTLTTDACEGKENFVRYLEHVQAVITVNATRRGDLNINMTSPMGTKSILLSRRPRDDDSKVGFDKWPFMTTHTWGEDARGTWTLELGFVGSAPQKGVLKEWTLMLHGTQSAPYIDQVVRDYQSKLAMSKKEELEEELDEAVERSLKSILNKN
Sequence of UniProt P35030 (whole entry, unmodified, looked up): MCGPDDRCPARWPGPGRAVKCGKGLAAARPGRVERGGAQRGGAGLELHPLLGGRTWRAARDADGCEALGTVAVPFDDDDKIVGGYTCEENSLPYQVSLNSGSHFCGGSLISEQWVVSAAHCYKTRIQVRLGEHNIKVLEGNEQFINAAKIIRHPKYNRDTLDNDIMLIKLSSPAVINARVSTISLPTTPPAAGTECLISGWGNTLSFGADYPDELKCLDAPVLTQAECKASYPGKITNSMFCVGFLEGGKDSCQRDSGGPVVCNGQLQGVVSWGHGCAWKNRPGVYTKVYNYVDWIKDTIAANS
Sequence of UniProt P45983 (whole entry, looked up): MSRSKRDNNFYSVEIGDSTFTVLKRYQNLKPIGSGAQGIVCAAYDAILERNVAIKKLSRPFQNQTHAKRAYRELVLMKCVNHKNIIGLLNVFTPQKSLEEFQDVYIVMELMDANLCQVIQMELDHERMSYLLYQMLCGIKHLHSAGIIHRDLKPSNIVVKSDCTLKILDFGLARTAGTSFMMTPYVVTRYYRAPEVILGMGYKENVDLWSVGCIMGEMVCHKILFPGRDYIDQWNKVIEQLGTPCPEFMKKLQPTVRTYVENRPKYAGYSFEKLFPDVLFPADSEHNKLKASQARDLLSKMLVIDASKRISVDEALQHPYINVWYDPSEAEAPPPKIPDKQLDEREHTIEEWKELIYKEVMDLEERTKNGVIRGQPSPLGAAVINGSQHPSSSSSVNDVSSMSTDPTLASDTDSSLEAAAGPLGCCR
Sequence of UniProt P18031 (whole entry, looked up): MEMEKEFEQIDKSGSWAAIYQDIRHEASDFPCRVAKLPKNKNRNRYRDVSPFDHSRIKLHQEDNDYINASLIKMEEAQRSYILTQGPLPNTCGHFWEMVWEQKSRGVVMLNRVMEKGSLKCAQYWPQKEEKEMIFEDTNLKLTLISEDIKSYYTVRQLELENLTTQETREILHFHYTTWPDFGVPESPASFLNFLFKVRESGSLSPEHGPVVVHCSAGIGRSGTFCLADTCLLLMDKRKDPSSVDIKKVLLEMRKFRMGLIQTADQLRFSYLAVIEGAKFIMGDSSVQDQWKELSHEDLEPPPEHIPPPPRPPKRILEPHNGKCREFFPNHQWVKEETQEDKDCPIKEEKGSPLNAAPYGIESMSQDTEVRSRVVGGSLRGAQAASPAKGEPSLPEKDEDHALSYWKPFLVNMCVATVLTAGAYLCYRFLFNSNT

| Structure (SMILES) | target or system | assay | system | setting | how to read | quantity | value |
| --- | --- | --- | --- | --- | --- | --- | --- |
| CCCc1c(O)c(O)cc(C(=O)O)c1COC1OC(CO)C(O)C(O)C1O (stereo not drawn) | Catenin beta-1, armadillo repeat domain (Mus musculus, UniProt Q02248) | binding to HD2, inhibitor, ELISA | – | added: His-HD2 with GST-ARD | – | Ki | 0.9 ± 0.8 µM |
| CC[C@H](C)[C@H](NC(=O)[C@@H](NC(=O)[C@H](CO)NC(=O)[C@@H](NC(=O)[C@@H]1CCCN1C(=O)[C@H](CC(C)C)NC(=O)[C@H](CCCNC(=N)N)NC(=O)[C@H](CO)NC(=O)[C@H](CC(N)=O)NC(=O)[C@H](C)N)[C@@H](C)O)[C@@H](C)CC)C(=O)O | NHERF1 (Homo sapiens, UniProt O14745) | ligand displacement, FP | – | – | – | Ki | > 1000 µM |
| CSCCCC/C(=N/OS(=O)(=O)O)S[C@@H]1O[C@H](CO)[C@@H](O)[C@H](O)[C@H]1O | PTPN1 (Homo sapiens, UniProt P18031) | enzyme activity, inhibitor | – | – | – | Ki | 6.29 µM |
| CCC1(CC)C(=O)N(c2cccc(C(=O)N3CCN(Cc4ccc(Br)cc4)CC3)c2)C1=O | DPP9 | enzyme activity, inhibitor, fluorescence | – | – | – | Ki | 0.095 µM |
| CNC(=O)C1CCCN(C(=O)C2CC3CCC2N3C(=O)[C@@H]2C[C@@H](O)CN2C(=O)NCc2cccc(Cl)c2F)C1 (mixture of isomers) | Cytochrome P450 2D6 (CYP2D6, Homo sapiens, UniProt P10635) | enzyme activity, inhibitor, time-dependent inhibition | – | 0.0686 µM, preincubated with NADPH | reference: negative control | remaining activity | 102% |
| Cc1nc(-c2c[nH]c(C(=O)Nc3ncccc3O)c2)cs1 | Trypsin-3 (Homo sapiens, UniProt P35030, H275D) | enzyme activity, inhibitor | – | mixed inhibition model | – | Ki | 53.8 ± 0.1 µM |
| N#CCC12CC1C(n1cnc3c(NC(C4CCC4)C4CC4)nc(I)nc31)C(O)C2O (stereo not drawn) | SLC6A3 (Homo sapiens, UniProt Q01959) | ligand displacement, radioligand | – | – | – | Ki | 5.4 µM |
| Cc1nn(-c2cccc(N)c2)c(=O)c2cnc(Nc3ccc(N4CCNCC4)cc3)nc12 | EPHB2 (Homo sapiens, UniProt P29323) | kinase activity, inhibitor, SelectScreen kinase profiling | – | – | – | IC50 | > 10 µM |
| CCCCCCCCCCCC=O | uncharacterized protein (Spodoptera exigua, UniProt F1CEY0) | binding | – | added: 1-NPN | – | Ki | 5.03 µM |
| CC(=O)N[C@@H](CO)C(=O)N[C@H](C(=O)NCC(=O)NCC(=O)N[C@@H](CCCCN)C(=O)N[C@@H](C)C(=O)N1CCC[C@H]1C(=O)N[C@@H](CCCNC(=N)NCCC[C@H]1O[C@@H](n2cnc3c(N)ncnc32)[C@H](O)[C@@H]1O)C(=O)N[C@@H](CCCCN)C(=O)N[C@@H](CCC(N)=O)C(=O)N[C@@H](CC(C)C)C(=O)N[C@@H](C)C(=O)N[C@H](C(=O)N[C@@H](CCCCN)C(=O)N[C@@H](C)C(=O)N[C@@H](C)C(N)=O)[C@@H](C)O)[C@@H](C)O (relative stereo) | CARM1 | enzyme activity, inhibitor | – | – | – | Ki | 0.096 µM |
| CCC1(CC)CC(=O)N(C2c3cc(C(=O)NC4c5ccccc5CC4O)ccc3OC2(C)COC)C(=N)N1 (stereo not drawn) | plasmepsin X (Plasmodium knowlesi, UniProt A0A384K9C7) | enzyme activity, inhibitor, peptide cleavage | – | – | – | Ki | 9e-05 µM and 8.8e-05 µM |
| C=CC(=O)Nc1cccc(Cn2ncc3cnc(Nc4cnn(CCOC)c4)nc32)c1 | EPHA3 human | binding, KINOMEscan | – | 100 nM | lower = stronger binding | percent of control | 80% |
| CCC1(CC)C(=O)N(c2ccc(CC(=O)O)cc2)C1=O | DPP9 | enzyme activity, inhibitor, fluorescence | – | – | – | Ki | 0.919 µM |
| OB(O)c1cnn(-c2cccc(Cl)c2)c1 | CELA1 | enzyme activity, inhibitor, absorbance | – | – | – | Ki | 3330 µM |
| CC(=O)N[C@@H](CC(C)C)C(=O)N[C@@H](CC(C)C)C(=O)N[C@@H](CC(C)C)C(=O)N[C@@H](CC(C)C)C(=O)N[C@@H](CCCNC(=N)N)C(=O)N[C@H](C(=O)N[C@@H](CCCCN)C(=O)N[C@@H](CCCNC(=N)N)C(N)=O)C(C)C | Neuroendocrine convertase 2 (Homo sapiens, UniProt P16519) | enzyme activity, inhibitor | – | – | – | Ki | 0.59 µM |
| COC1CN([C@H]2CC[C@H]([C@@]3(C)Oc4c(Cl)cc(C(=O)NCc5c(SC)cc(C)[nH]c5=O)c(C)c4O3)CC2)C1 | – | RNA-seq, item: HPGD mouse homolog | mouse, HT-1376 xenograft, whole blood | dose not given | reference: vehicle | log2 fold change | 0.868 |
| CC(=O)N1CCC[C@H]1C(=O)N[C@@H](CCCNC(=N)NCCC[C@H]1O[C@@H](n2cnc3c(N)ncnc32)[C@H](O)[C@@H]1O)C(=O)N[C@@H](CCCCN)C(=O)N[C@@H](CCC(N)=O)C(N)=O (relative stereo) | CARM1 | enzyme activity, inhibitor | – | – | – | Ki | 0.13 µM |
| CSc1ccc2c(c1)C(N1CCN(C)CC1)Cc1ccccc1S2 (stereo not drawn) | HTR1E | binding | – | – | – | Ki | 0.053 µM |
| COC(=O)[C@]1(C(C)C)C=C(C(=O)Nc2cccc(C(=O)Nc3ccc(Nc4nccc(-c5cccnc5)n4)c(C)c3)c2)C(=O)CC1 | MAPK8 (Homo sapiens, UniProt P45983) | SPR two-step binding model | – | wild-type protein surface | – | Ki | 0.017 µM |
| OB(O)c1ccc(OCc2ccccc2)nc1F | CELA1 | enzyme activity, inhibitor, absorbance | – | – | – | Ki | 248 µM |
| CCC1(CC)C(=O)N(c2cc(O)cc(C(=O)N3CCN(Cc4ccc(Br)cc4)CC3)c2)C1=O | DPP9 | enzyme activity, inhibitor, fluorescence | – | – | – | Ki | 0.0778 µM |
| CC(C)C[C@H](NC(=O)[C@H](Cc1ccc(O)cc1)NC(=O)[C@@H](CCCNC(=N)N)NC(=O)[C@@H](CO)NC(=O)[C@H](Cc1ccccc1)NC(=O)[C@H](CC1CCCCC1)NC(=O)[C@H](CC(=O)O)NC(=O)CN1CCN(CC(=O)O)CCN(CC(=O)O)CCN(CC(=O)O)CC1)C(=O)N[C@@H](Cc1c[nH]c2ccccc12)C(=O)N[C@@H](CO)C(=O)O [copper-64 labelled] | – | – | human, stomach contents | concentration not given, 1 h | – | activity concentration | 3180 Bq/mL and 6590 Bq/mL and 4270 Bq/mL and 4960 Bq/mL and 3620 Bq/mL and 5080 Bq/mL |
| Cc1ncsc1-c1ccc(C(C)NC(=O)C2CC(O)CN2C(=O)C(NC(=O)CCCCCCCCCCN2CCCC(Nc3ncc(Cl)c(Nc4ccccc4S(=O)(=O)C(C)C)n3)C2)C(C)(C)C)cc1 (stereo not drawn) | 22Rv1 | RNA-seq, item: TRIM68 mRNA | – | concentration not given | reference: DMSO | log2 fold change | -1.38 |
| Cn1ccc2c(N3CCN(CCCCOc4ccc5c(c4)NC(=O)CC5)CC3)cccc21 | HTR1E | ligand displacement, radioligand | – | – | – | Ki | > 10 µM |
| C=C(NC(=O)c1csc(-c2nc3c(cc2O)-c2nc(cs2)C(=O)NC(C(C)O)C(=O)NC(=C(C)OC)c2nc(cs2)C(=O)NC2c4nc(cs4)C(=O)NC(COC(=O)c4c5c6c(cccc6n4O)COC(=O)C(OC4CC(C)(O)C(N(C)C)C(C)O4)C2OC5)c2nc-3cs2)n1)C(N)=O (stereo not drawn) | – | – | female Sprague-Dawley rats, plasma | intravenous infusion, 18 mg/kg | – | AUC(0-inf) | 5890 ng·h/mL |
| CCC1(CC)C(=O)N(c2cccc(CCC(=O)O)c2)C1=O | DPP9 | enzyme activity, inhibitor, fluorescence | – | – | – | Ki | 0.345 µM |
| C=C1CC[C@H](OCCCNC(=O)CCOCCOCCOCCOCCOCCOCCOCCOCCOCCOCCOCCOCCOCCOCCOCCOCCOCCOCCOCCOCCOCCOCCOCCOCCOCCOCCOCCOCCOCCOCCOCCOCCOCCOCCOCCOCCNC(=O)CCN2C(=O)CC(SC[C@H](NC(=O)[C@H](Cc3ccccc3)NC(=O)[C@H](CC(N)=O)NC(=O)[C@H](Cc3c[nH]cn3)NC(=O)[C@@H](NC(=O)[C@H](CC(=O)O)NC(=O)[C@H](CCC(N)=O)NC(=O)[C@H](CC(C)C)NC(=O)[C@H](CCCCN)NC(=O)[C@H](CCCCN)NC(=O)[C@H](CCCNC(=N)N)NC(=O)[C@H](CC(C)C)NC(=O)[C@H](Cc3c[nH]c4ccccc34)NC(=O)[C@H](CCC(=O)O)NC(=O)[C@@H](NC(=O)[C@H](CCCNC(=N)N)NC(=O)[C@H](CCC(=O)O)NC(=O)[C@H](CCSC)NC(=O)[C@H](CO)NC(=O)[C@H](CC(N)=O)NC(=O)[C@H](CC(C)C)NC(=O)[C@H](Cc3c[nH]cn3)NC(=O)[C@H](CCCCN)NC(=O)CNC(=O)[C@H](CC(C)C)NC(=O)[C@H](CC(N)=O)NC(=O)[C@H](Cc3c[nH]cn3)NC(=O)[C@H](CCSC)NC(=O)[C@H](CC(C)C)NC(=O)[C@H](CCC(N)=O)NC(=O)[C@@H](NC(=O)[C@H](CCC(=O)O)NC(=O)[C@H](CO)NC(=O)[C@@H](NC(=O)[C@@H](N)CO)C(C)C)[C@@H](C)CC)C(C)C)C(C)C)C(=O)O)C2=O)C/C1=C/C=C1\CCC[C@]2(C)[C@@H]([C@H](C)CCCC(C)(C)O)CC[C@@H]12 (stereo partly drawn) | – | – | male cynomolgus monkey, plasma | subcutaneous, 0.02 mg/kg, single dose | – | Cmax | 61.1 ng/mL |
| CCCC1(C)C(=O)N(c2cccc(CN3CCN(Cc4ccc(Br)cc4)CC3)c2)C1=O | DPP9 | enzyme activity, inhibitor, fluorescence | – | – | – | Ki | > 2 µM |
| CC(C)C[C@H](NC(=O)[C@@H](CCCCNC(=O)[C@@H](Cc1ccccc1)NC(=O)CCCCCNC(=O)CN1CCN(CC(=O)O)CCN(CC(=O)O)CCN(CC(=O)O)CC1)NC(=O)[C@H](Cc1ccc(O)cc1)NC(=O)[C@H](CO)NC(=O)[C@H](Cc1c[nH]c2ccccc12)NC(=O)[C@H](Cc1c[nH]cn1)NC(=O)[C@@H]1CCC(=O)N1)C(=O)N[C@@H](CCCNC(=N)N)C(=O)N1CCC[C@H]1C(=O)NCC(N)=O [indium-111 labelled] | – | – | female athymic nude mice, tumor | intravenous, 0.037 MBq, 2 h | – | tissue uptake | 0.2 ± 0.04 %ID/g |
| Nc1ncc(-c2cc(-c3cnn(CC(F)(F)F)c3)ncc2F)nc1C(=O)NC1CNCC(F)C1 (stereo not drawn) | BMPR2 | KINOMEscan | – | 1 µM | reference: DMSO control | remaining binding | 100% |

A few entries again:
| Structure (SMILES) | target or system | assay | system | setting | how to read | quantity | value |
| --- | --- | --- | --- | --- | --- | --- | --- |
| Nc1ncc(-c2cc(-c3cnn(CC(F)(F)F)c3)ncc2F)nc1C(=O)NC1CNCC(F)C1 (stereo not drawn) | BMPR2 | KINOMEscan | – | 1 µM | reference: DMSO control | remaining binding | 100% |
| CNC(=O)C1CCCN(C(=O)C2CC3CCC2N3C(=O)[C@@H]2C[C@@H](O)CN2C(=O)NCc2cccc(Cl)c2F)C1 (mixture of isomers) | Cytochrome P450 2D6 (CYP2D6, Homo sapiens, UniProt P10635) | enzyme activity, inhibitor, time-dependent inhibition | – | 0.0686 µM, preincubated with NADPH | reference: negative control | remaining activity | 102% |
| CSCCCC/C(=N/OS(=O)(=O)O)S[C@@H]1O[C@H](CO)[C@@H](O)[C@H](O)[C@H]1O | PTPN1 (Homo sapiens, UniProt P18031) | enzyme activity, inhibitor | – | – | – | Ki | 6.29 µM |
| CSc1ccc2c(c1)C(N1CCN(C)CC1)Cc1ccccc1S2 (stereo not drawn) | HTR1E | binding | – | – | – | Ki | 0.053 µM |
